Experimental data of several laboratories.
A part holds a random share of what one study measured. Several values in a cell are separate wells, animals, samples, runs or records.
Sequence of UniProt Q99640 (whole entry, looked up): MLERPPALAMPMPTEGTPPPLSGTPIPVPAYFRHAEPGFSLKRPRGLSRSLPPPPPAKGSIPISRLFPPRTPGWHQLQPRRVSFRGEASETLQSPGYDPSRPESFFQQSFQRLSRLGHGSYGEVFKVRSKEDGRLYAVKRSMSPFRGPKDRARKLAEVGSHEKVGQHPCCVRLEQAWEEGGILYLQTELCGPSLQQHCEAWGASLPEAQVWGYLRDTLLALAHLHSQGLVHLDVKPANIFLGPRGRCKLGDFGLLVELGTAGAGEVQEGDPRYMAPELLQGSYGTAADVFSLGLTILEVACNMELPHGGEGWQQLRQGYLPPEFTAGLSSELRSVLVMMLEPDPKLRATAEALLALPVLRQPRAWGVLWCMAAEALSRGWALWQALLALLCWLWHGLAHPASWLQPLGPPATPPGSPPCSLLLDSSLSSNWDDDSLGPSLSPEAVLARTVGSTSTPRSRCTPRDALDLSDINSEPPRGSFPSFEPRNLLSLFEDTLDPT
Sequence of UniProt Q9UK32 (whole entry, looked up): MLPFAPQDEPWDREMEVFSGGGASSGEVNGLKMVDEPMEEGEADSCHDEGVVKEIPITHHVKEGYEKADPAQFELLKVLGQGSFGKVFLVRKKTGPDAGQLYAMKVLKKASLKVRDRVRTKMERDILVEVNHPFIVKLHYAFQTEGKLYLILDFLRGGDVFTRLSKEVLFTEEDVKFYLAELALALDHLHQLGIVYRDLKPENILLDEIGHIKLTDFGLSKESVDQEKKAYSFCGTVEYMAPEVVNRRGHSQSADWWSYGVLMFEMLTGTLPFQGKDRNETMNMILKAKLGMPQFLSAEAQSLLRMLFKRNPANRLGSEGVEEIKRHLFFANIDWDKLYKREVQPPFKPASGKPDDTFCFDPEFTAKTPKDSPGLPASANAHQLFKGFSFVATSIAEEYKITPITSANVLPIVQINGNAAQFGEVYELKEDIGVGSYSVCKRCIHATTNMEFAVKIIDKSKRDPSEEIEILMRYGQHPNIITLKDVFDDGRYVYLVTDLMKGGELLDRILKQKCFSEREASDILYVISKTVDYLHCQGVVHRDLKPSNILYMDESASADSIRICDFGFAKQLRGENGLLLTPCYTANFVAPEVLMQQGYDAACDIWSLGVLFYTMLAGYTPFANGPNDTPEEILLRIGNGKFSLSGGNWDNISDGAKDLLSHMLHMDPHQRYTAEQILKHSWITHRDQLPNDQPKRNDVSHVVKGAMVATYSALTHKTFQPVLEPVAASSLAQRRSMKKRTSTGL
Sequence of UniProt Q13464 (whole entry, looked up): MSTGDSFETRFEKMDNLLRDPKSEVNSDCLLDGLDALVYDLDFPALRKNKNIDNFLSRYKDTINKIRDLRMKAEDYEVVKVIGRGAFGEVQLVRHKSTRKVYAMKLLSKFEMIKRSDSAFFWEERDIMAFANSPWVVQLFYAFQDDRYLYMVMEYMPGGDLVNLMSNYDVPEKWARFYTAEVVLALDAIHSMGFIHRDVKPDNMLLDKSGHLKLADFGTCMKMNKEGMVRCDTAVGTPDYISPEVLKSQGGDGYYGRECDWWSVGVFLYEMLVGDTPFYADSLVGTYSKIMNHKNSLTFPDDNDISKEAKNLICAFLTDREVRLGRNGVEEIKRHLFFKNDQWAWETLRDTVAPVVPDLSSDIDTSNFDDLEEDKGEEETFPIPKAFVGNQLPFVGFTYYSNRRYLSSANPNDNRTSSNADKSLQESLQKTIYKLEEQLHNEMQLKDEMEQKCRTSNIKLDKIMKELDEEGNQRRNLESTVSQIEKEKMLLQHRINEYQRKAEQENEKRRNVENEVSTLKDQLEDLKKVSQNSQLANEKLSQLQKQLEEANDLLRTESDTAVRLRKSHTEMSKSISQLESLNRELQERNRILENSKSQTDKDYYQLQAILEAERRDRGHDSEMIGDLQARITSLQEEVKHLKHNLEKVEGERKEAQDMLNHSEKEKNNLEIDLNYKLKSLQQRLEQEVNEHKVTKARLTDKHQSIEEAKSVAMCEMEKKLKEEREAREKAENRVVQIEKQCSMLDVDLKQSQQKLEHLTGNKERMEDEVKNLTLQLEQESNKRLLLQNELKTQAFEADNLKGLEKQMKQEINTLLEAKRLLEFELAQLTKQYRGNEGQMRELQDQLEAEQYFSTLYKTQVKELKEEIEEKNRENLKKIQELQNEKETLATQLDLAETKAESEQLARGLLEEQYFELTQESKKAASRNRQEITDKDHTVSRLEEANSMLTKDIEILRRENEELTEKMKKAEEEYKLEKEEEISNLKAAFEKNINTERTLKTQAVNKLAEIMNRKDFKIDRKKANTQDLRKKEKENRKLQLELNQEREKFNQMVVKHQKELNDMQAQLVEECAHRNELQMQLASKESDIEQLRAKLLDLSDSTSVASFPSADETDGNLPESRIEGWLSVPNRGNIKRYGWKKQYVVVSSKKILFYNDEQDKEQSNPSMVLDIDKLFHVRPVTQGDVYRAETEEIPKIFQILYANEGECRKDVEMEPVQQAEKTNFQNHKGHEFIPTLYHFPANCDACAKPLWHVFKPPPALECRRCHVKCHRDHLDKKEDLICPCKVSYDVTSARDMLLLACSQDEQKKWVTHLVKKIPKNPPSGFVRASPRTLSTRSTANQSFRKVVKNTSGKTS
Sequence of UniProt Q00535 (whole entry, looked up): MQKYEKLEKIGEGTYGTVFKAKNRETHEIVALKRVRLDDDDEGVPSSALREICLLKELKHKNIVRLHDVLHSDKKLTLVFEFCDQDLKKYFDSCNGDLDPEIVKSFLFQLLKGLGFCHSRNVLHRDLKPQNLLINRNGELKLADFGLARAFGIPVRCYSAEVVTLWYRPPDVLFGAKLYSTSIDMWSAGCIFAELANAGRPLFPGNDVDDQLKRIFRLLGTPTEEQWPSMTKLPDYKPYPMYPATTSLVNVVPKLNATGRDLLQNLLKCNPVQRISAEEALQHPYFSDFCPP

Block 1
Compound: C[C@@H]1CN(c2ccc(-c3cc(C(=O)NCCOCCOCCOCCOCCNC(=O)Cn4cc(-c5[nH]cc(C(=O)N[C@@H](CC(N)=O)c6ccc(F)c(Cl)c6)c5-c5ccc(Cl)cc5F)cn4)ccc3F)cc2NC(=O)c2c[nH]c(=O)cc2C(F)(F)F)C[C@H](C)N1C
Read-out: thermal unfolding
Technique: differential scanning fluorimetry
Tested at: 5.5 µM
Reading: higher = more unfolded
Quantity: SYPRO Orange fluorescence
WDR5: WD repeat-containing protein 5 (WDR5, Homo sapiens, UniProt P61964)
DCAF1: DDB1- and CUL4-associated factor 1 (DCAF1, Homo sapiens, UniProt Q9Y4B6)
Sequence of UniProt Q9Y4B6 (whole entry, looked up): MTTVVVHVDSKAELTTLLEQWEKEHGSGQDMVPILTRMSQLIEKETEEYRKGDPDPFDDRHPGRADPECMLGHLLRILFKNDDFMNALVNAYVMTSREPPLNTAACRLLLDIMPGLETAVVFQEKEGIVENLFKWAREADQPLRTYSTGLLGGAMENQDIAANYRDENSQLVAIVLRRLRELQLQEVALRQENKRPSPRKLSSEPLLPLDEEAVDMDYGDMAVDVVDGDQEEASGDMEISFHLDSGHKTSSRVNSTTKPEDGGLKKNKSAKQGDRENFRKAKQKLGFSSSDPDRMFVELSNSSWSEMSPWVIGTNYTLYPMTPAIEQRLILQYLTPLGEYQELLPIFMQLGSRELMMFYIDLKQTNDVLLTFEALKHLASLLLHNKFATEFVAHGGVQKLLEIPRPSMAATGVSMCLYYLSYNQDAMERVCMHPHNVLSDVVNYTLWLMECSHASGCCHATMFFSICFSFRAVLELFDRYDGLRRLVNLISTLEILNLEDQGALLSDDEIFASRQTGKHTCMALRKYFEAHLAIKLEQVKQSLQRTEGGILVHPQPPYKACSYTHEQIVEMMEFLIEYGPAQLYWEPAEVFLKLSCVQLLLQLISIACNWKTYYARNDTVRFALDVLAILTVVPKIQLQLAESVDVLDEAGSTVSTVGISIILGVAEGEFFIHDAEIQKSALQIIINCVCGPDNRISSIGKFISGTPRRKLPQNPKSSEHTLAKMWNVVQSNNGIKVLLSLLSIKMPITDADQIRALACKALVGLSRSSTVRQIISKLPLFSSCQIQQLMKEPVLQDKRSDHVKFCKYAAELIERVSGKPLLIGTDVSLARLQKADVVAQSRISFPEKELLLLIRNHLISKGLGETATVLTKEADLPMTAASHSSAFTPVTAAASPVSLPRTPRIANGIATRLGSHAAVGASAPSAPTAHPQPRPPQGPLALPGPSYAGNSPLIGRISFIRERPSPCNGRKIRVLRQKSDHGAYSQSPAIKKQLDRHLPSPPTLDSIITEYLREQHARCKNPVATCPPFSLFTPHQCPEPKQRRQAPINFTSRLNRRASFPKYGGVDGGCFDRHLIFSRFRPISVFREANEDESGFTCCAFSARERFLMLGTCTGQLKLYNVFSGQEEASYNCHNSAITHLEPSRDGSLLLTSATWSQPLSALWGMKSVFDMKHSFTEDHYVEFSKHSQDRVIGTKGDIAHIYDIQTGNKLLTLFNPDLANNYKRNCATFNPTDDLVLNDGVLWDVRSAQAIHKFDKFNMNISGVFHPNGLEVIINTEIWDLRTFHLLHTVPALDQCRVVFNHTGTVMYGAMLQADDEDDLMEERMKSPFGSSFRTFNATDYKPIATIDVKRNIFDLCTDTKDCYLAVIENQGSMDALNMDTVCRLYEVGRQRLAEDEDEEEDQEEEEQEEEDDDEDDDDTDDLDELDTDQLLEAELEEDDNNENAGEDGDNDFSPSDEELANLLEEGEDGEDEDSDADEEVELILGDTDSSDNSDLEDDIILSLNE
WDR5; 37.6 °C: 14400 a.u.
DCAF1; 70.01 °C: 54500 a.u.
WDR5; 79.41 °C: 21400 a.u.
WDR5; 74.81 °C: 10800 a.u.
WDR5; 71.01 °C: 7210 a.u.
WDR5; 83.61 °C: 35500 a.u.
DCAF1; 46.4 °C: 12900 a.u.
WDR5; 70.01 °C: 6820 a.u.
WDR5; 50.4 °C: 14400 a.u.
DCAF1; 55.41 °C: 20300 a.u.
WDR5; 39.8 °C: 14300 a.u.

Block 2
Organism: Arabidopsis thaliana
Strain: Col-0
Tested at: 25 µg/mL
Setting: seed germination, single repetition
Quantity: hypocotyl length
COc1ccc2c(c1)OC(O)(C(=O)O)C(=O)N2Cc1ccccc1 (stereo not drawn): 1.64 cm and 1.63 cm and 1.76 cm and 1.65 cm and 1.53 cm
O=C(O)C1(O)Oc2cc(F)ccc2N(Cc2ccccc2)C1=O (stereo not drawn): 0.94 cm and 1.09 cm and 0.89 cm and 1.03 cm and 1 cm
CCN1C(=O)C(O)(C(=O)O)Oc2cc(F)ccc21 (stereo not drawn): 1.79 cm and 1.74 cm and 1.71 cm and 1.76 cm and 1.73 cm
O=C(O)C1Oc2cc(F)ccc2N(Cc2ccccc2)C1=O (stereo not drawn): 2.03 cm and 2.11 cm and 2.01 cm and 2.09 cm
CCCN1C(=O)C(O)(C(=O)O)Oc2cc(F)ccc21 (stereo not drawn): 1.67 cm and 1.79 cm and 1.68 cm and 1.7 cm

Block 3
SMILES: O=C(Nc1ccccc1)Nc1cccc(Oc2ccc3nccn3n2)c1
Tested at: 1 µM
Quantity: remaining binding
Serine/threonine-protein kinase LATS1 (LATS1, Homo sapiens, UniProt O95835); binding: 100%
Phosphatidylinositol 4-kinase beta (PI4KB, Homo sapiens, UniProt Q9UBF8); binding: 100%
Hepatocyte growth factor receptor (MET, Homo sapiens, UniProt P08581, M1250T); binding: 100%
Serine/threonine-protein kinase MRCK alpha (CDC42BPA, Homo sapiens, UniProt Q5VT25); binding, competition with immobilised ligand: 99%
Cyclin-dependent kinase 5 (CDK5, Homo sapiens, UniProt Q00535); cell-free binding: 100%
Tyrosine-protein kinase Blk (BLK, Homo sapiens, UniProt P51451); binding, competition with immobilised ligand: 100%
RAF proto-oncogene serine/threonine-protein kinase (RAF1, Homo sapiens, UniProt P04049); binding, competition with immobilised ligand: 79%
Inhibitor of nuclear factor kappa-B kinase subunit beta (IKBKB, Homo sapiens, UniProt O14920); binding, competition with immobilised ligand: 100%
Ribosomal protein S6 kinase alpha-6, N-terminal kinase domain (RPS6KA6, Homo sapiens, UniProt Q9UK32); binding, competition with immobilised ligand: 100%
Cyclin-dependent kinase 16 (CDK16, Homo sapiens, UniProt Q00536); binding: 100%
Serine/threonine-protein kinase VRK2 (VRK2, Homo sapiens, UniProt Q86Y07); binding, competition with immobilised ligand: 100%
Angiopoietin-1 receptor (TEK, Homo sapiens, UniProt Q02763); binding, competition with immobilised ligand: 7.6%
BMP-2-inducible protein kinase (BMP2K, Homo sapiens, UniProt Q9NSY1); binding: 100%
Mitogen-activated protein kinase kinase kinase 11 (MAP3K11, Homo sapiens, UniProt Q16584); binding: 100%
Serine/threonine-protein kinase N2 (PKN2, Homo sapiens, UniProt Q16513); binding: 100%
Aurora kinase A (AURKA, Homo sapiens, UniProt O14965); binding, competition with immobilised ligand: 100%

Block 4
Compound: COc1cc(-c2nc3ccc(C(=O)NCCCN4CCN(c5cccc(C)c5C)CC4)cc3n2C2CCC2)cc(OC)c1OC
Read-out: binding
Technique: competition with immobilised ligand
Tested at: 1 µM
Quantity: remaining binding
Tyrosine-protein kinase ABL1, phosphorylated (ABL1, Homo sapiens, UniProt P00519, E255K): 62%
Ribosomal protein S6 kinase alpha-6, C-terminal kinase domain (RPS6KA6, Homo sapiens, UniProt Q9UK32): 100%
Serine/threonine-protein kinase DCLK1 (DCLK1, Homo sapiens, UniProt O15075): 79%
Proto-oncogene tyrosine-protein kinase receptor Ret (RET, Homo sapiens, UniProt P07949, M918T): 85%
Non-receptor tyrosine-protein kinase TYK2, JH2 (TYK2, Homo sapiens, UniProt P29597): 99%
High affinity nerve growth factor receptor (NTRK1, Homo sapiens, UniProt P04629): 100%
Protein kinase C eta type (PRKCH, Homo sapiens, UniProt P24723): 100%
Serine/threonine-protein kinase PAK 3 (PAK3, Homo sapiens, UniProt O75914): 50%
Casein kinase I isoform epsilon (CSNK1E, Homo sapiens, UniProt P49674): 99%
Serine/threonine-protein kinase 4 (STK4, Homo sapiens, UniProt Q13043): 79%
Epithelial discoidin domain-containing receptor 1 (DDR1, Homo sapiens, UniProt Q08345): 71%
Serine/threonine-protein kinase 16 (STK16, Homo sapiens, UniProt O75716): 92%
Receptor-type tyrosine-protein kinase FLT3 (FLT3, Homo sapiens, UniProt P36888, K663Q): 97%
Fibroblast growth factor receptor 3 (FGFR3, Homo sapiens, UniProt P22607): 98%
Casein kinase II subunit alpha (CSNK2A1, Homo sapiens, UniProt P68400): 81%
Rho-associated protein kinase 1 (ROCK1, Homo sapiens, UniProt Q13464): 82%

Block 5
SMILES: Cc1ncsc1-c1ccc(C2(NC(=O)C3CC(O)CN3C(=O)C(NC(=O)c3ccc(COc4c(-c5c(C)c(F)cc6[nH]ncc56)c(C5CC5)cc5c(N6CC7CC6CN7)nc(OC6CCOCC6)nc45)cc3)C(C)(C)C)CC2)cc1 (stereo not drawn)
Cell line: AsPC-1
Technique: in-cell ELISA
Quantity: phospho-ERK1/2 level
300 nM, individual replicates: 59.2% and 96.9% and 63.2% and 93.9% and 57.7% and 92.8%
3 nM, per-experiment values: 98.5% and 99.4% and 90.6%
10 nM, individual replicates: 107% and 88% and 102% and 103% and 94.4% and 86.8%
30 nM, per-experiment values: 95% and 105% and 99.3%
1 nM, individual replicates: 85.2% and 105% and 95% and 88.4% and 83.6% and 101%

Block 6
SMILES: CCN1/C(=C/C=C2\CCCC(/C=C/C3=[N+](CC)c4ccccc4C3(C)C)=C2NCCCCCCCCN2CCC(Nc3nc4ccccc4n3Cc3ccc(F)cc3)CC2)C(C)(C)c2ccccc21
Cell line: U-87 MG
Tested at: concentration not given
Reference: DMSO
Quantity: log2 fold change
item: DEPTOR mRNA: -1.22
item: NECAB1 mRNA: 1.47
item: TERF2IP mRNA: 0.913
item: CRYBG1 mRNA: -2.04
item: CSDC2 mRNA: -2.31
item: F2R mRNA: -1.98
item: ATP6V1B2 mRNA: 0.956
item: PTK7 mRNA: -1.44
item: BUB1 mRNA: -1.85
item: NUTM2D mRNA: 1.57
item: UBE2W mRNA: 0.844
item: ZCCHC7 mRNA: 1.21
item: TLR6 mRNA: -1.6
item: LHX6 mRNA: -1.58
item: KIF18B mRNA: -2.74
item: RAPGEF6 mRNA: 0.872

Mixed results
SLC6A19: Sodium-dependent neutral amino acid transporter B(0)AT1 (SLC6A19, Homo sapiens, UniProt Q695T7)
Sequence of UniProt Q695T7 (whole entry, looked up): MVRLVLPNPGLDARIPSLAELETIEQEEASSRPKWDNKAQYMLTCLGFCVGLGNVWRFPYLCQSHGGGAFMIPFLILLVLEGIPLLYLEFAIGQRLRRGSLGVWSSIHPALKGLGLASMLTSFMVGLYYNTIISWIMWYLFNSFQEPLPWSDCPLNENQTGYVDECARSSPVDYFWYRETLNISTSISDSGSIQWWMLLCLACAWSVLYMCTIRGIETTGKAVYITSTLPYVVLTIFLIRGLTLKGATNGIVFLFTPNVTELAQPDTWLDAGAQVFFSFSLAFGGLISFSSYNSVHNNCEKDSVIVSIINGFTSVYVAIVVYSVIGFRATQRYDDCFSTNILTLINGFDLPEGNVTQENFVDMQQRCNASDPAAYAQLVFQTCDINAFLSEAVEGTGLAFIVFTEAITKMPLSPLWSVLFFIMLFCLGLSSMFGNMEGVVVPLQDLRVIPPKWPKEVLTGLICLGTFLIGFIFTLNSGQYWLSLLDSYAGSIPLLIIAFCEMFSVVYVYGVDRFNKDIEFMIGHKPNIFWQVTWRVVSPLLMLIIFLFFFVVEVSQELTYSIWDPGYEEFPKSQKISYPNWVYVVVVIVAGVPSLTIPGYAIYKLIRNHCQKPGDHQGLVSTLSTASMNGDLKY
CC(=O)N[C@@H](Cc1c[nH]c2ccccc12)C(=O)N[C@@H](CCC(=O)C=[N+]=[N-])C(N)=O — DON concentration (P493B lymphoma cells; human plasma; concentration not given, plasma fraction of partition): 0.03 nmol/mL
Cc1ccc(O)c(C)c1-c1cnc2[nH]c(-c3cnc(N4CCC5(CC4)CC(N4CCN(c6ccc(N[C@H]7CCC(=O)NC7=O)cc6F)CC4)CO5)nc3)cc2c1C#N (single isomer, unassigned) — degradation (Membrane-associated tyrosine- and threonine-specific cdc2-inhibitory kinase (PKMYT1, Homo sapiens, UniProt Q99640); degrader, automated immunoblot (Jess); 0.05 nM, 24 h): 3.06% and 5.66%
Cc1nc(C)c(C=[N+]([O-])C(C)(C)C)nc1C — striatal dopamine content (HPLC-ECD; MPTP mouse model, striatum; 10 mg/kg): 4.48 ng/mg tissue and 4.47 ng/mg tissue and 4.8 ng/mg tissue and 3.93 ng/mg tissue and 5.41 ng/mg tissue and 5.28 ng/mg tissue and 4.46 ng/mg tissue
CCn1cnc2c(NCc3nc4cc(F)c(F)cc4[nH]3)nc(N3CCn4ncnc4C3)nc21 — luminescence signal (MDA-MB-231; cell viability, CellCounting-Lite; 2.743 nM, 37 °C; higher = more viable cells): 555000 a.u. and 480000 a.u. and 488000 a.u.
CCNC(=O)COc1ccc(Br)c(C)c1 — remaining transport activity (SLC6A19; inhibitor, L-[14C]leucine uptake; CHO-BC cells; 0.01 µM, 6 min, 37 °C, unit not given, together with: GPNA 3 mM, JPH203 3 µM; reference: uninhibited cells): 1
Cc1ccc(O)c(C)c1-c1cnc2[nH]c(-c3cnc(N4CCC5(CC4)CC(CN4CCN(c6ccc(NC7CCC(=O)NC7=O)cc6F)CC4)C5)nc3)cc2c1C#N (stereo not drawn) — pCDK1 (Thr14) level (HCC1569; in-cell western, item: CDK1 phospho-Thr14; 10000 nM): 152 RLU and 135 RLU
CCn1cnc2c(NCc3nc4ccc(F)c(F)c4[nH]3)nc(N3CCn4ncnc4C3)nc21 — EC50 (MDA-MB-468; cell growth or viability; 5 days): 0.0485 µM
CC(C)NC(=O)COc1ccc2ccccc2c1 — remaining transport activity (SLC6A19; inhibitor, FLIPR membrane potential; CHO-BC cells; 0.001 µM, unit not given; reference: uninhibited cells): 1.04
Cc1ccc(O)c(C)c1-c1cnc2[nH]c(-c3cnc(N)nc3)cc2c1C#N — pCDK1 (Thr14) level (HCC1569; in-cell western, item: CDK1 phospho-Thr14; 1.52 nM): 13.9% and 15.1%
CC(=O)N[C@@H](Cc1c[nH]c2ccccc12)C(=O)N[C@@H](CCC(=O)C=[N+]=[N-])C(=O)OC(CF)CF — remaining compound (CES1-/- mouse GI tissue homogenate; 60 min): 1%
Cc1ccc(O)c(C)c1-c1cnc2[nH]c(-c3cnc(N4CCC(CCN5CCN(c6cc7c(cc6F)c(N6CCC(=O)NC6=O)nn7C)CC5)CC4)nc3)cc2c1C#N — pCDK1 (Thr14) level (HCC1569; in-cell western, item: CDK1 phospho-Thr14; 12.35 nM): 60.1 RLU and 42.8 RLU
CC(C)NC(=O)COc1ccc(I)cc1 — remaining transport activity (SLC6A19; inhibitor, FLIPR membrane potential; CHO-BC cells; 30 µM, unit not given; reference: no inhibitor): 0.249
[2H]C([2H])([2H])OC(=O)[C@H](CCC(=O)C=[N+]=[N-])NC(=O)[C@H](Cc1c[nH]c2ccccc12)NC(C)=O — DON concentration (P493B lymphoma cells; human plasma; concentration not given, plasma fraction of partition): 0.06 nmol/mL
CCCCNC(=O)COc1cc(C)c(Cl)c(C)c1 — normalised transport activity (SLC6A19; inhibitor, FLIPR membrane potential; CHO-BC cells; 30 µM): 1.03
COCCOCCOC(=O)[C@H](CCC(=O)C=[N+]=[N-])NC(=O)[C@H](Cc1c[nH]c2ccccc12)NC(=O)CN(C)C — remaining compound (CES1-/- mouse GI tissue homogenate; 60 min): 3%

For quick reference, copied from above (block 6):
item: DEPTOR mRNA: -1.22
item: NECAB1 mRNA: 1.47
item: TERF2IP mRNA: 0.913
item: CRYBG1 mRNA: -2.04
item: CSDC2 mRNA: -2.31
item: F2R mRNA: -1.98
item: ATP6V1B2 mRNA: 0.956
item: PTK7 mRNA: -1.44
item: BUB1 mRNA: -1.85
item: NUTM2D mRNA: 1.57
item: UBE2W mRNA: 0.844
item: ZCCHC7 mRNA: 1.21
